Published values pooled from the literature.
Numbers after ± are the reported error.

COC[C@H](C)N1C(=O)C2=Nc3ccccc3CN2C1=S  IC50 (CEM/ADR5000 (P-gp overexpressing, multidrug resistant); cell viability, resazurin; 72 h): 5290 ± 668 nM
C=C(C)C(=O)NCCCCCCOCc1cn(CCCCCCNC(=O)C(=C)C)nn1  IC50 (L929; viability, alamarBlue; 3 days): > 50000 nM
NC(=O)c1ccc(-c2ccccc2Cl)c2c3c([nH]c12)CC[C@@H](N)C3  IC50 (RBE; cell growth or viability): 1.47 nM
O=C(NCc1cc(F)cc(F)c1)[C@@]1(O)CCN(c2ccc3[nH]ccc3c2)C1=O  IC50 (Anal PDX-derived tumour cells; colony formation, soft agar clonogenic; 8-10 days): 130 nM
C=C(C)C(=O)NCCCCCCCCOCc1cn(CCCCCCCCNC(=O)C(=C)C)n[n+]1C  IC50 (L929; cell growth or viability; 72 h): 35400 nM
O=C1C(Cl)=C(Cl)C(=O)c2c(O)ccc(O)c21  IC50 (HuCC-A1; cell growth or viability, MTT): 9460 nM
CN1CCC(N[C@H]2CCc3[nH]c4c(C(N)=O)ccc(-c5ccccc5Cl)c4c3C2)CC1  IC50 (RBE; cell growth or viability): 440 nM
O=C1CS/C(=N\N=C2/C(=O)N(CCn3ncc4c(=O)[nH]cnc43)c3ccc(Cl)cc32)N1  IC50 (A498; cell growth or viability, SRB; 72 h): 42.6 µg/mL
COc1ccc(NC(=O)c2ccc3[nH]c(-c4ccc(N(C)C)cc4)nc3c2)cn1  IC50 (ZR-75-1; cell growth, CellTiter-Glo): 9680 nM
C=CS(=O)(=O)NCCCCCCCCOCc1cn(CCCCCCCCNS(=O)(=O)C=C)nn1  IC50 (L929; cell growth or viability; 72 h): 11000 nM
CCOc1cncc(-c2ccc(NC(=O)C3(c4ccnc(NS(=O)(=O)C5CC5)n4)CCOCC3)nc2)n1  IC50 (A498; cell proliferation, CellTiter-Glo; 72 h, renal cancer): 545 nM
C[C@H](c1ccccc1)N1C(=O)C2=Nc3ccc(Cl)cc3CN2C1=S  IC50 (CEM/ADR5000 (P-gp overexpressing, multidrug resistant); cell viability, resazurin; 72 h): 295 ± 83 nM
C=CC(=O)N1CCCC(n2c(=O)c3ncccc3n(Cc3ccc(Oc4ccccc4)cc3)c2=O)C1 (centres unmarked)  IC50 (OCI-Ly10; cell growth or viability, MTT; 72 h): 5000 nM
C=CS(=O)(=O)NCCCCOCc1cn(CCCCNS(=O)(=O)C=C)nn1  IC50 (L929; viability, alamarBlue; 3 days): > 50000 nM
O=C(NCC1(c2nc(-c3ccccc3)cs2)CCOCC1)c1cccc(-c2noc(C(F)(F)F)n2)c1  IC50 (OCI-Ly10; cell growth or viability, CCK-8; 7 days): > 20000 nM
COc1cc(C(=O)N/N=C/c2cccc3ccccc23)cc(OC)c1OC  IC50 (NALM16; cell growth or viability, MTT; 48 h): 47.6 nM
C=CC(=O)NCCCCCCOCc1cn(CCCCCCNC(=O)C=C)nn1  IC50 (L929; viability, alamarBlue; 3 days): > 50000 nM
CCC(=[NH+][Pt-2]1([Cl])([O]C(=O)CC(C)C)([O]C(=O)CC(C)C)[NH]CCC[NH]1)N(C)CCNc1c2ccccc2[nH+]c2ccccc12.O=[N+]([O-])O.O=[N+]([O-])O  IC50 (NCI-H460, high hMATE1; cell proliferation, MTS; 72 h): 5.27 ± 1.2 nM
C[C@H](c1ccccc1)N1C(=O)C2=Nc3ccccc3CN2C1=S  IC50 (CEM/ADR5000 (P-gp overexpressing, multidrug resistant); cell viability, resazurin; 72 h): 489 ± 16 nM
O=C1C=CC(=O)N1CCCCCCCCOCc1cn(CCCCCCCCN2C(=O)C=CC2=O)nn1  IC50 (L929; cell growth or viability; 72 h): 6000 nM
CC(C)c1ccc(N(C)c2ccc3c(c2)OCC[C@H]3CNc2cnccc2C(=O)O)cc1  IC50 (HT-1376; cell growth or viability, ATP luminescence; 7 days): 36.3 nM
CC1(C)C[C@@H](Nc2cccc(-c3sc(C(=O)O)c(OCC(=O)O)c3Cl)c2)CCN1S(=O)(=O)Cc1cccc(NC(=O)CN2CCC(c3ccc4c(c3)oc(=O)n4C3CCC(=O)NC3=O)CC2)c1 (some centres unmarked)  IC50 (B16-F10 cells; IFNγ-induced STAT1 phosphorylation, HTRF, item: pSTAT1 Tyr701; 24 h, with: IFNγ): 206 ± 22 nM
C[n+]1nn(CCCCCCCCCCN2C(=O)C=CC2=O)cc1COCCCCCCCCCCN1C(=O)C=CC1=O  IC50 (L929; cell growth or viability; 72 h): 18200 nM
CC(C)=CC1OC(C)(C)C2C=C3C(=O)C(Cl)=CC(O)C3C3C(O)C4OC4C(=O)C132 (centres unmarked)  IC50 (NCI-H3122; cell growth or viability, MTS): 2080 nM
CN(C)CCNC(=O)c1cccn2c(=O)c3cc4ccccc4cc3nc12  IC50 (THLE3; cell growth or viability, imaging; 72 h): 64600 nM
COC(=O)N1c2ccc3c(nc(Cc4ccccc4)n3[C@@H]3CCC[C@@H](C(=O)O)C3)c2CC[C@@H]1C  IC50 (HCC1954; cell growth or viability, ATP luminescence; 10 days): 2100 nM
C[C@@H](c1cccc2ccccc12)N1C(=O)C2=Nc3ccccc3CN2C1=S  IC50 (CEM/ADR5000 (P-gp overexpressing, multidrug resistant); cell viability, resazurin; 72 h): 322 ± 93 nM
CNS(=O)(=O)Nc1nccc(Cc2c(C)c3ccc(Oc4ncccc4F)cc3oc2=O)c1F  IC50 (SK-HEP1; cell viability; 7 days): > 1000 nM
Cn1ncc(-c2ccc3c(=O)[nH]nc(CN)c3c2)c1-c1c(F)c(Cl)cc(OC2CC2)c1C#N  IC50 (WM-266-4; cell viability, inhibitor, CellTiter-Glo; 120 h): 1920 nM
COc1cccc(N2C(=O)C3=Nc4ccccc4CN3C2=S)c1  IC50 (CEM/ADR5000 (P-gp overexpressing, multidrug resistant); cell viability, resazurin; 72 h): 28100 ± 972 nM
CC(=O)O[C@H]1OC[C@@H]2C=C([C@]3(C)CCCC(C)(C)C3)CC[C@H]12  IC50 (human T-lymphocyte; cell growth or viability, MTT; 48 h): 4000 nM
O=C1C=C(O)C(=O)c2ccccc21  IC50 (HuCC-A1; cell growth or viability, MTT): 276000 nM
O=C1C(=NN=c2[nH]ccs2)c2cc(Cl)ccc2N1CCn1ncc2c(=O)[nH]cnc21  IC50 (A498; cell growth or viability, SRB; 72 h): 2.27 µg/mL
O=C1C=CC(=O)N1CCCCOCc1cn(CCCCN2C(=O)C=CC2=O)nn1  IC50 (L929; cell growth or viability; 72 h): 2200 nM
C=CC(=O)Nc1ccc(F)c(-c2ncnc3[nH]cc(C(=O)OCC)c23)c1  IC50 (mouse naive CD4 T cells; IL-2 production, ELISA; ITK/RLK dependent, with: TCR stimulation): 1120 ± 500 nM

For quick reference, copied from above:
CCOc1cncc(-c2ccc(NC(=O)C3(c4ccnc(NS(=O)(=O)C5CC5)n4)CCOCC3)nc2)n1  IC50 (A498; cell proliferation, CellTiter-Glo; 72 h, renal cancer): 545 nM
COc1ccc(NC(=O)c2ccc3[nH]c(-c4ccc(N(C)C)cc4)nc3c2)cn1  IC50 (ZR-75-1; cell growth, CellTiter-Glo): 9680 nM
CC(C)c1ccc(N(C)c2ccc3c(c2)OCC[C@H]3CNc2cnccc2C(=O)O)cc1  IC50 (HT-1376; cell growth or viability, ATP luminescence; 7 days): 36.3 nM
